# Assay results from different studies.
# Parts stem from different laboratories: compare values within a part only.

# Block 1 — method: protein-binding microarray; molecule type: double-stranded DNA, one strand shown; medium: in vitro; tested at: not given; reading: higher = stronger binding
# Target: Protein C-ets-1 (ETS1, Homo sapiens, UniProt P14921, residues 1-441, K379A, full length assumed)
# UniProt P14921, sequence (whole entry, unmodified, looked up): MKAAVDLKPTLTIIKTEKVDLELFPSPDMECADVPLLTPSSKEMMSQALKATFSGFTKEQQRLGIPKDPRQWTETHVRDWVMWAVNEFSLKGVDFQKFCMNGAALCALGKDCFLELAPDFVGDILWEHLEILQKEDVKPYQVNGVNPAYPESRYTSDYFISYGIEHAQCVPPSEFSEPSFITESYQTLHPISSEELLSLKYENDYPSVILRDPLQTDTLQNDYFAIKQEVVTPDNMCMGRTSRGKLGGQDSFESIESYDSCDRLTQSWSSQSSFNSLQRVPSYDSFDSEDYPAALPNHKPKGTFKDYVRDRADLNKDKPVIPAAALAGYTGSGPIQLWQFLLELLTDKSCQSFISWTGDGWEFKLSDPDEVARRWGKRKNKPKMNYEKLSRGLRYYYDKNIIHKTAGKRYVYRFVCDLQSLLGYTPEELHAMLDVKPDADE
# Notes: k-mer, scored over probes, only values ≥0.25
Oligonucleotide,E-score
CCACGACG,0.26
ACAACAAC,0.263
CCGCCCGG,0.383
GTTACACA,0.27
AACTACCA,0.278
ATCAACAA,0.265
CGCCGGGA,0.264
AAGCCGGT,0.269
TACAGTAA,0.287
ACCGGCAG,0.367
ACAACTTC,0.285
ACCCGCGC,0.269
CGGTTATA,0.267
ACTTGTAT,0.251
ACCTATAT,0.295
AATTTCCG,0.303
TCCGGCGA,0.292
CCGGTACA,0.406

# Block 2 — method: RNA Bind-n-Seq; molecule type: RNA; medium: in vitro; tested at: 200 nM; notes: whole 134-nt RNA, ends assumed; with: 150 mM KCl; relative to: input library; reading: higher = stronger binding
# Target: Ras GTPase-activating protein-binding protein 1, full length (G3BP1, Homo sapiens, UniProt Q13283)
# UniProt Q13283, sequence (whole entry, looked up): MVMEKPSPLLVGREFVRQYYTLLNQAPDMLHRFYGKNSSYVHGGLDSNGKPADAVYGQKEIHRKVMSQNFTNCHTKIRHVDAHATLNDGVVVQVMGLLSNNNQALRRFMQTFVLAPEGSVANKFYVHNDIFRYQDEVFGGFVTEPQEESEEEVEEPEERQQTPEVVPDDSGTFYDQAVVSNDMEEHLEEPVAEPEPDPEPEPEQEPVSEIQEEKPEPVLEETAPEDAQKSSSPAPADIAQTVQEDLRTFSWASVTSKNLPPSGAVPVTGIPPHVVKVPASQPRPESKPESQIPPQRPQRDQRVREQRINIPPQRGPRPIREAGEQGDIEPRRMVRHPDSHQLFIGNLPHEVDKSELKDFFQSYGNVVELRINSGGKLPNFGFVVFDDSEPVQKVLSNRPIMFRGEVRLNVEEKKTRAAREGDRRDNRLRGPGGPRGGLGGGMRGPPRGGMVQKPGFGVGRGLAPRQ
Oligonucleotide,log2 enrichment
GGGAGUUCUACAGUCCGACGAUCGUCCUGUGCUACACAUCGUAUGUACCGAAUCGGGAAAAAGGAAAAAGGGGAAAAAGGGAAAGUAUUAUGUUACGCCGUUCGGAUCUGCACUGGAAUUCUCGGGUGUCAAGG,-0.703
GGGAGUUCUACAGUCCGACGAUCGUCCUGUGCUACACAUCGUAUGUACCGAAUCAAACCCCCAAACCCCCAAACCCCCAAAAAAGUAUUAUGUUACGCCGUUCGGAUCUGCACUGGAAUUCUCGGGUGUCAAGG,-0.483
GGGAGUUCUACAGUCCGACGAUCACCAUGCAGGUGGGCAUCUUUGGGAAGUGGGGCAAGGGGGGGAUAGGGAGGGGGGUAACACUUUGGGAAGAGGUGGUCCCAGGUCGUUUCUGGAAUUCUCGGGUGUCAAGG,1.25
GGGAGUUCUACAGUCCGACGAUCUCAAGUCCUGUGCUACACAUCGUAUGUACCGAAUCGGGGAAAGGAAAGGAAAGGGAAAGUAUUAUGUUACGCCGUUCGGAUCUGCACUUCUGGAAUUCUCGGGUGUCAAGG,-0.737
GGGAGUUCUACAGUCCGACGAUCCAAGUCCUGUGCUACACAUCGUAUGUACCGAAUCGGGCCCGGGGCCCGGGCCCGGGAAAGUAUUAUGUUACGCCGUUCGGAUCUGCACUUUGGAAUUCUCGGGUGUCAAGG,-1.02
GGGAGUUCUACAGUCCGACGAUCCAAGUCCUGUGCUACACAUCGUAUGUACCGAAUCGGGAAAAAAAGGGAGGGAGGGAAAGUAUUAUGUUACGCCGUUCGGAUCUGCACUUCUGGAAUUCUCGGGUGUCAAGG,0.652
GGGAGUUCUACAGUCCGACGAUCUAACUUUAGAGGAGGAUCUGAUGGAUAUGGCAGUGGACGUGGAUUUGGAGAUGGCUAUAAUGGGUAUGGAGGAGGACCUGGAGGUGGCAAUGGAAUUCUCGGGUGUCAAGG,0.403
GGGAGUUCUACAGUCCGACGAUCUCCUGUGCUACACAUCGUAUGUACCGAAUCGGUUUUUUUGGGUUUUUUUGGUUUUUUUGGAAAGUAUUAUGUUACGCCGUUCGGAUCUGCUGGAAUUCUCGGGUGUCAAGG,-0.297
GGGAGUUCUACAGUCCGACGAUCCUGUGCUACACAUCGUAUGUACCGAAUCGGGUUUUUUUGGUUUUUUUGGGGUUUUUUUGGGGAAAGUAUUAUGUUACGCCGUUCGGAUCUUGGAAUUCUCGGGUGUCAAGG,-0.987

# Block 3 — method: RNA Bind-n-Seq; molecule type: RNA; medium: in vitro; tested at: 365 nM; relative to: no-protein control; reading: higher = stronger binding
# Target: RNA binding protein fox-1 homolog 2, RRM domain, GST-SBP tag (RBFOX2, Homo sapiens, UniProt O43251-10, residues 100-194)
# Notes: natural RNA segment, single round, ends assumed
# Construct (chain): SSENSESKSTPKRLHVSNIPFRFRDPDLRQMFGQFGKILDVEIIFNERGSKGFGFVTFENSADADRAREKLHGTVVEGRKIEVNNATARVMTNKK
Oligonucleotide,RBNS enrichment (R)
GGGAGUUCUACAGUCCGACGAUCAAAGGAUUUUACCAAAGCAUCAAUACAACCAGCCCAACCAUCGGUCCACACCUGGGCAUUUGGUGAGAGUCAAAGCUGACCAUGGAUCCCUGGGGCCAACGGCAACAGCAUGGAAUUCUCGGGUGCCAA,1.04
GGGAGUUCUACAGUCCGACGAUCGAUUUUGCCAAAAUUGUCAUGACUCUGAAUUCUUGCUGUGGGGACUUCCUGAGUUUUCUCAGUUUUUACAUCUAAGAUUAGUCUUGGCUGAAGAGAAAUGAGACGUGAUUUGGAAUUCUCGGGUGCCAA,0.566
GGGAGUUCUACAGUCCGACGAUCAAUUCAUGUCAGUGAAGAAAUGCAGAAUUUAAACAAAAUCAGCUUGAGUUUGUUUUACCAGAUGCUCAGCUUGCUAACACACUUGAGAUCAGACCAUACUCUGAGCAGACUGGAAUUCUCGGGUGCCAA,0.239
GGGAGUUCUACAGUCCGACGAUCUCUGCCUGCCUUUGUACCUCACUCACCUCCACCGCUCUCCAGCCCCUCUGAUGGCCACUCAGAGAAUACCAUAAUAAACAUGGCUGAGGACCCAGGAGAGUUCACGGGAGUGGAAUUCUCGGGUGCCAA,1.03
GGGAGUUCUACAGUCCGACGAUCACUCUGCUUCCUUGUGGGUGGCCUUUUUUUACCGAUCCCCUUUUUUAUUUUUUACAACCGGACCUCCACCCCCAACUUCCUCCAGCCCAGCUGGGCUUCCUUUGUUGGAGUGGAAUUCUCGGGUGCCAA,0.525
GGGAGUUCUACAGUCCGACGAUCACUGCAUUAUUAUUGUGAAACAAACCGAUGUGGUUUAGAGCCACCAGCACUGACCCUUUCCUAGUUUCCCUAAUGCUAUCACUUAAAUAUUACAACAAAUGGGAGGUUCUUGGAAUUCUCGGGUGCCAA,0.318
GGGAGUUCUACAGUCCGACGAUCCUGCCUUCUUUCCCUGUCCCAUGGGCACAGUCCUCACAGGGAGUGGCCUCCUCUCUCCAGUGAUGUAAGUGAAUGGAAGCCAUCACUGGCUGCACAUACCUUUUUCAAAAUGGAAUUCUCGGGUGCCAA,0.532
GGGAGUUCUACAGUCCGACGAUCCCUGUCUGCCUGCCCAGCCAUGCUCCAUCGGCUGUGAGGGCAGUGCCCGGAGAGGCCAGAGGGUUGGAGCUGCAGGGACCCGUUUGGACCCACAGCCUCUGUUCUAGAGAUGGAAUUCUCGGGUGCCAA,0.582

# Block 4 — method: protein binding microarray; molecule type: double-stranded DNA, one strand shown; medium: in vitro; tested at: not given; relative to: not given; reading: higher = stronger binding
# Target: Histone acetyltransferase KAT6A, winged helix 1, GST fusion (KAT6A, Homo sapiens, UniProt Q92794, residues 1-85)
# Notes: 8-mer, flanks averaged, mean of 2 arrays, mostly near background
# Construct (chain): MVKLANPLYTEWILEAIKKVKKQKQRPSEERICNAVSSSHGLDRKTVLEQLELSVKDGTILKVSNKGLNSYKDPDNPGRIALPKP
Oligonucleotide,E-score
ACGGTTAC,0.289
CGAAAGAG,-0.172
CAACGCAC,0.0725
CGCACTCC,0.256
AGCTGAAC,-0.324
AAACTGAT,-0.0227
CAGGCCAA,-0.14
GCGAACTA,-0.0708
CTTGCAAA,-0.0785
TCGAAGAA,-0.203
ATTGCCTC,-0.151
AAAAGGGA,-0.27
AGACGCCG,0.291
GCCCTGAC,-0.0586
CGAGTGTA,0.0371
ATCAAACA,-0.293
ATGTCACC,-0.0613
ATATCACC,0.0278
TCCCGAAA,-0.0714
CCGAAGGA,0.0109
ATTACTAC,-0.123
ATTATCGG,0.0667
CAATTGTG,-0.108
GATATCCC,0.0773
AGTCTCAG,-0.264

# A few entries again (block 4):
Oligonucleotide,E-score
GATATCCC,0.0773
ATCAAACA,-0.293
CGAGTGTA,0.0371
GCGAACTA,-0.0708
CTTGCAAA,-0.0785
ATTATCGG,0.0667
ACGGTTAC,0.289
ATGTCACC,-0.0613
GCCCTGAC,-0.0586
